Experimental data from different studies.
Each line is one published result; not all experiments were run side by side. ± gives the spread as reported.
U2AF2: U2AF2 148-342 (Homo sapiens, UniProt P26368)
Chain of UniProt P26368 (whole entry, looked up): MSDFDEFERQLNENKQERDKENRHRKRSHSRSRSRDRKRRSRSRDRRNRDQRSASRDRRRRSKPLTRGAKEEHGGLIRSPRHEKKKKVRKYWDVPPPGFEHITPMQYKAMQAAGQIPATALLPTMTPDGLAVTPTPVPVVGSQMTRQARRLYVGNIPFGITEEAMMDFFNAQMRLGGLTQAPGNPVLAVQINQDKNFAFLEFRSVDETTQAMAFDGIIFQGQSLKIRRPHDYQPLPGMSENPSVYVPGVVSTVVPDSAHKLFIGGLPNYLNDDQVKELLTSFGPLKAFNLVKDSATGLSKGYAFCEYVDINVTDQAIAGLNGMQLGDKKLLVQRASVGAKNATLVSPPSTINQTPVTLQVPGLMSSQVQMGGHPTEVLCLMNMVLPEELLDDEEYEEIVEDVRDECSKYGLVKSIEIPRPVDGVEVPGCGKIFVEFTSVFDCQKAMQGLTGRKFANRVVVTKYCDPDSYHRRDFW
B1: Transcriptional regulator (NtrC family) 374-442 (Aquifex aeolicus, UniProt O66551); sequence looked up; chain LKEKSWRDLSYLLKIKELKEAKKEFEKIFIEEKLREYDYDLKRTAEEIGIDLSNLYRKIKSLNIRVKSS
B2: CRYAB (Homo sapiens, UniProt P02511); chain MDIAIHHPWIRRPFFPFHSPSRLFDQFFGEHLLESDLFPTSTSLSPFYLRPPSFLRAPSWFDTGLSEMRLEKDRFSVNLDVKHFSPEELKVKVLGDVIEVHGKHEERQDEHGFISREFHRKYRIPADVDPLTITSSLSSDGVLTVNGPRKQVSGPERTIPITREEKPAVTAAPKK
B3: SPOP K134N (Homo sapiens, UniProt O43791); sequence looked up; chain MSRVPSPPPPAEMSSGPVAESWCYTQIKVVKFSYMWTINNFSFCREEMGEVIKSSTFSSGANDKLKWCLRVNPKGLDEESKDYLSLYLLLVSCPKSEVRAKFKFSILNAKGEETKAMESQRAYRFVQGKDWGFNKFIRRDFLLDEANGLLPDDKLTLFCEVSVVQDSVNISGQNTMNMVKVPECRLADELGGLWENSRFTDCCLCVAGQEFQAHKAILAARSPVFSAMFEHEMEESKKNRVEINDVEPEVFKEMMCFIYTGKAPNLDKMADDLLAAADKYALERLKVMCEDALCSNLSVENAAEILILADLHSADQLKTQAVDFINYHASDVLETSGWKSMVVSHPHLVAEAYRSLASAQCPFLGPPRKRLKQS
B4: tas3 426-545 (Schizosaccharomyces pombe, UniProt O94687); sequence looked up; chain NPLASLTTDKNDLYINWLKSLSFFQTNSSCAEALVKVIPHYHNKLIDFSQVLQLVFSASEKFPIQENQPLPEQLMFLSNLEKQTPFAKAVGSSIYKLVTGKNLSLDFASQILKEASILEH
B5: AP3D1 1-617 (Homo sapiens, UniProt O14617); sequence looked up; chain MALKMVKGSIDRMFDKNLQDLVRGIRNHKEDEAKYISQCIDEIKQELKQDNIAVKANAVCKLTYLQMLGYDISWAAFNIIEVMSASKFTFKRIGYLAASQSFHEGTDVIMLTTNQIRKDLSSPSQYDTGVALTGLSCFVTPDLARDLANDIMTLMSHTKPYIRKKAVLIMYKVFLKYPESLRPAFPRLKEKLEDPDPGVQSAAVNVICELARRNPKNYLSLAPLFFKLMTSSTNNWVLIKIIKLFGALTPLEPRLGKKLIEPLTNLIHSTSAMSLLYECVNTVIAVLISLSSGMPNHSASIQLCVQKLRILIEDSDQNLKYLGLLAMSKILKTHPKSVQSHKDLILQCLDDKDESIRLRALDLLYGMVSKKNLMEIVKKLMTHVDKAEGTTYRDELLTKIIDICSQSNYQYITNFEWYISILVELTRLEGTRHGHLIAAQMLDVAIRVKAIRKFAVSQMSALLDSAHLLASSTQRNGICEVLYAAAWICGEFSEHLQEPHHTLEAMLRPRVTTLPGHIQAVYVQNVVKLYASILQQKEQAGEAEGAQAVTQLMVDRLPQFVQSADLEVQERASCILQLVKHIQKLQAKDVPVAEEVSALFAGELNPVAPKAQKKVPV
B6: POL30 1-258 (Saccharomyces cerevisiae, UniProt P15873); chain MLEAKFEEASLFKRIIDGFKDCVQLVNFQCKEDGIIAQAVDDSRVLLVSLEIGVEAFQEYRCDHPVTLGMDLTSLSKILRCGNNTDTLTLIADNTPDSIILLFEDTKKDRIAEYSLKLMDIDADFLKIEELQYDSTLSLPSSEFSKIVRDLSQLSDSINIMITKETIKFVADGDIGSGSVIIKPFVDMEHPETSIKLEMDQPVDLTFGAKYLLDIIKGSSLSDRVGIRLSSEAPALFQFDLKSGFLQFFLAPKFNDEE
B7: dlg1 1-97 L14G (Drosophila melanogaster, UniProt P31007); sequence looked up; chain MPVKKQEAHRALEGLEDYHARLSEPQDRALRIAIERVIRIFKSRLFQALLDIQEFYELTLLDDSKSIQQKTAETLQIATKWEKDGQAVKIADFIKSS
B8: clcA 1-465 C85A/L406A/I409A/I410A/L413A (Escherichia coli, UniProt P37019); chain MKTDTPSLETPQAARLRRRQLIRQLLERDKTPLAILFMAAVVGTLVGLAAVAFDKGVAWLQNQRMGALVHTADNYPLLLTVAFLASAVLAMFGYFLVRKYAPEAGGSGIPEIEGALEDQRPVRWWRVLPVKFFGGLGTLGGGMVLGREGPTVQIGGNIGRMVLDIFRLKGDEARHTLLATGAAAGLAAAFNAPLAGILFIIEEMRPQFRYTLISIKAVFIGVIMSTIMYRIFNHEVALIDVGKLSDAPLNTLWLYLILGIIFGIFGPIFNKWVLGMQDLLHRVHGGNITKWVLMGGAIGGLCGLLGFVAPATSGGGFNLIPIATAGNFSMGMLVFIFVARVITTLLCFSSGAPGGIFAPMLALGTVLGTAFGMVAVELFPQYHLEAGTFAIAGMGALLAASIRAPATGAALVAEMTDNYQLILPMIITGLGATLLAQFTGGKPLYSAILARTLAKQEAEQLARSK
B9: racE (Dictyostelium discoideum, UniProt Q23862); pS192; sequence looked up; chain MSEDQGSGATRVKLVVVGDGAVGKTCLLICYAQNDFPVDYVPTVFENYTATRKRGNEDIKVHLWDTAGQEEYDRLRPLSYPGADVVLLCFSTISQSSYEAIRDKWAPEVNHYIPDVPSILVGTKIDLREQQHPDPNSGKFEPITADMGISMQKQIKAKKYLEVSAKTRQGLEEVFSAAIEIVLESRGMDKKSQDGSSSASGVPSGDKPTKGKAGKKKSGCIIL
B10: Gm4951 S230A (Mus musculus, UniProt Q3UED7); sequence looked up; chain MGQLFSSRRSEDQDLSSSFIEYLKECEKGINIIPHEIITSIEINMKKGNIQEVNSTVRDMLREIDNTPLNVALTGETGSGKSSFINTLRGIGHEEGGAAHTGVTDKTKERHPYEHPKMPNVVFWDLPGTGSEDFQPKTYLEKMKFYEYDFFIIISATRFKKNDIDLAKAIGIMKKEFYFVRTQVDSDLRNEEDFKPQTFDREKVLQDIRLNCVNTFRENGIAEPPIFLIANKNVCHYDFPVLMDKLISDLPVFKRQNFMFSLPNITDSVIEKKRNFLRWKTWLEGFADGLLSFFLESDLETLEKSMKFYRTVFGVDDASLQRLARAWEIDQVDQVRAMIKSPAVFTPTDEETIQERLSRYNQEFCLANGYLLPKNHCREILYLKLYFLDMVTEDAKTLLKEICLRN
Chain of UniProt P13393 (whole entry, looked up): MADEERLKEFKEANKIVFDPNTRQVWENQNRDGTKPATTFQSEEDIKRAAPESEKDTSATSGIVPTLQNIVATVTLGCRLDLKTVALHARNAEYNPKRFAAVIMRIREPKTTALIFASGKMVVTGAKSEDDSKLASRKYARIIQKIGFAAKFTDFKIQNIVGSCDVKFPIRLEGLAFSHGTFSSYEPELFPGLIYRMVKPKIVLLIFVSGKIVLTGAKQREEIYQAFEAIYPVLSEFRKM
Chain of UniProt Q00535 (whole entry, looked up): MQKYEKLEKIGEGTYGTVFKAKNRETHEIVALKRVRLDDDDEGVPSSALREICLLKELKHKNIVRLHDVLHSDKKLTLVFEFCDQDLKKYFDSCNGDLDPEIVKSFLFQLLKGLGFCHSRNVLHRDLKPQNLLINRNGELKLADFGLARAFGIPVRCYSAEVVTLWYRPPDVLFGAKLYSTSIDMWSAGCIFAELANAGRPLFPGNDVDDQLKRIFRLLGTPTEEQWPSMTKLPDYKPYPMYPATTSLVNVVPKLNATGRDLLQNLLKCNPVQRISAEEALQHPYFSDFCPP

Substance	tested on	assay	system	conditions	scale	measurement	result
CTCAGGAATTCCTATAAGGTAATGTGGAGCTCAGTTCAAGTCAATCGGTCC (dsDNA; 5'-amino-C6 primer)	SPT15 full length assumed (Saccharomyces cerevisiae, UniProt P13393)	array	double-stranded DNA, one strand shown	TBP alone		Kd	2.11 ± 0.21 nM
B1 (Transcriptional regulator)	itself	X-ray crystallography				binding	binds
B2 (CRYAB)	itself	SEC				binding	binds
AUUGACUUU (ssRNA)	U2AF2	sequencing of bound RNA	RNA	motif only		Kd	2920 nM
B3 (SPOP K134N)	itself	negative-stain TEM				binding	binds
B4 (tas3 426-545)	itself	crystal structure				binding	binds
B5 (AP3D1 1-617)	itself	cryo-EM				binding	binds
B6 (POL30 1-258)	itself	cryo-EM				binding	binds
human Hsp90-beta	CYB5R4 knockout human cells	PP4 interaction, 3xFLAG-PP4C IP-MS		concentration not given	baseline: CYB5R4 KO over parental	log2 fold change	0.0263
KEAFWDRCLSVINLMSSKMVQINA	Cyclin-dependent kinase 5, with p25 (CDK5, Homo sapiens, UniProt Q00535)	phosphotransferase activity, radiometric	peptide	concentration not given, 10% DMSO, added: histone substrate	baseline: p5-WT peptide	activity change	17%
GCUGACAGU (ssRNA)	U2AF2	sequencing of bound RNA	RNA	motif only		Kd	1440 nM
B7 (dlg1 1-97 L14G)	itself	SEC				binding	binds
B8	itself	SEC				binding	binds
B9 (racE)	itself	SEC				binding	binds
B10 (Gm4951 S230A)	itself	mass photometry				binding	binds

Excerpt of the above:
Substance	tested on	assay	system	conditions	scale	measurement	result
B3 (SPOP K134N)	itself	negative-stain TEM				binding	binds
B4 (tas3 426-545)	itself	crystal structure				binding	binds
